# Assay results collected from several papers.
# Compare with care: the assays were run in different laboratories. Numbers after ± are the reported error.
# Organism: Toxoplasma gondii
SMILES,test,test system,setting,endpoint,result
CC(C)(C)c1nn(-c2cc(OCc3cn(Cc4cccc(C(F)(F)F)c4)nn3)c(Cl)cc2Cl)c(=O)o1,intracellular growth,"HFF, Δppo PPO-complemented",96 h,IC50,1 ± 0.4 µM
N#CSCCOc1cccc(Oc2ccccn2)c1,,tachyzoites,,IC50,> 10 µM
OCC1CC(n2cnc3c(SCc4c(F)cccc4Cl)ncnc32)C(O)C1O (centres unmarked),"parasite growth, radiolabelled uracil incorporation","RH wild type, tissue culture",,IC50,13.6 ± 0.2 µM
CC(C)(C)c1nn(-c2cc(OCc3cn(Cc4cccc(Br)c4)nn3)c(Cl)cc2Cl)c(=O)o1,intracellular growth,"HFF, Δppo PPO-complemented",96 h,IC50,1.5 ± 0.5 µM
OCC1CC(n2cnc3c(SCc4ccc(Cl)cc4)ncnc32)C(O)C1O (centres unmarked),"parasite growth, radiolabelled uracil incorporation","RH wild type, tissue culture",,IC50,14.5 ± 1.3 µM
COc1cccc(Oc2cccc(OCCSC#N)c2)c1,growth,tachyzoites,,IC50,4 µM
CCCCCCCc1cc(O)c2ccccc2[n+]1[O-],"parasite growth, qPCR","Vero, tachyzoites",24 h,EC50,0.995 µM
CCc1nc(N)nc(N)c1-c1ccc(Cl)cc1,,"ME49, Swiss-Webster mice","intraperitoneal, 5.0 mg/kg/day, 10 days dosing, 40 days observed",survival,90%
N#CSCCOc1cccc(Oc2ccc(Cl)cc2)c1,growth,tachyzoites,,IC50,3.9 µM
CC(C)(C)c1nn(-c2cc(OCc3cn(Cc4ccc(Cl)cc4)nn3)c(Cl)cc2Cl)c(=O)o1,intracellular growth,"HFF, Δppo PPO-complemented",96 h,IC50,1.1 ± 0.4 µM
COC(=O)c1ccc(CSc2ncnc3c2ncn3C2CC(CO)C(O)C2O)cc1 (centres unmarked),"parasite growth, radiolabelled uracil incorporation","RH wild type, tissue culture",,IC50,12.8 ± 0.3 µM
N#CSCCOc1ccc(Br)cc1Br,,tachyzoites,,IC50,> 10 µM
CC(C)(C)c1nn(-c2cc(OCc3cn(Cc4ccc(Br)cc4)nn3)c(Cl)cc2Cl)c(=O)o1,intracellular growth,"HFF, Δppo PPO-complemented",96 h,IC50,1.7 ± 0.2 µM
OCC1CC(n2cnc3c(SCc4ccc(Cl)cc4Cl)ncnc32)C(O)C1O (centres unmarked),"parasite growth, radiolabelled uracil incorporation","RH wild type, tissue culture",,IC50,18.6 ± 0.9 µM

# Repeated from above:
SMILES,test,test system,setting,endpoint,result
CC(C)(C)c1nn(-c2cc(OCc3cn(Cc4ccc(Br)cc4)nn3)c(Cl)cc2Cl)c(=O)o1,intracellular growth,"HFF, Δppo PPO-complemented",96 h,IC50,1.7 ± 0.2 µM
OCC1CC(n2cnc3c(SCc4ccc(Cl)cc4Cl)ncnc32)C(O)C1O (centres unmarked),"parasite growth, radiolabelled uracil incorporation","RH wild type, tissue culture",,IC50,18.6 ± 0.9 µM
